Measurements collected from several papers.
Protocols differ between the studies behind these lines. ± gives the spread as reported.

SMILES	test	system	conditions	scale	measurement	result
Cc1cc(Nc2nc(C[C@@]3(C(=O)O)CCN(Cc4cccc(Cl)c4F)[C@H](C)C3)cc(C)c2F)[nH]n1		mouse, IMR-32 neuroblastoma xenograft	oral, 5 mg/kg once daily		tumour growth inhibition	90%
CC(C)C[C@@H]1NC(=O)[C@H](C(C)C)NC(=O)[C@H](CO)NC(=O)CNC(=O)CNC(=O)[C@H](CCCNC(=N)N)NC(=O)[C@@H]2CCCN2C(=O)[C@@H](NC(=O)CC[C@H](NC(=O)c2ccc(N(C)Cc3cnc4nc(N)nc(N)c4n3)cc2)C(=O)O)C(C)(C)SSC[C@@H](C(=O)O)NC(=O)CNC(=O)[C@H]([C@@H](C)O)NC(=O)[C@H](C(C)C)NC1=O		rat adjuvant arthritis	intravenous, 1 mg/kg once daily, day 14	relative to: arthritis vehicle	liver weight increase suppression	30%
NCCCC[C@H](NC(=O)CNC(=O)CNC(=O)[C@H](CCCCN)NC(=O)CNC(=O)CNC(=O)CNC(=O)[C@H](CCCCN)NC(=O)CNC(=O)CNC(=O)[C@H](CCCCN)NC(=O)CNC(=O)CNC(=O)CNC(=O)[C@H](CCCCN)NC(=O)CNC(=O)CNC(=O)[C@H](CCCCN)NC(=O)CNC(=O)CNC(=O)CNC(=O)[C@H](CCCCN)NC(=O)CNC(=O)CNC(=O)[C@H](CCCCN)NC(=O)[C@H](CO)NC(=O)[C@H](Cc1ccc(O)cc1)NC(=O)CNC(=O)CNC(=O)CN)C(=O)NCC(=O)O		rVλ6Wil fibrils	1 h, room temperature, 0.05% Tween-20	relative to: 1 M NaCl over PBS	binding ratio	0.02
C[n+]1ccc(C(=O)NC2CCC3(O)C4Cc5ccc(O)c6c5C3(CC[N+]4(C)CC3CC3)C2O6)cc1 (stereo not shown)		Swiss Webster mice	subcutaneous, 10 mg/kg, up to 6 h, added: carmine red oral		gastrointestinal transit time	173 ± 3 min
O=C(O)CCn1c(=O)oc2cc(Cl)c(Cl)cc21		rat, acute pancreatitis model, bronchoalveolar lavage fluid	dose not given, 6 h		total protein	142 ± 6 mg/L
CC(=O)N[C@@H](Cc1c[nH]c2ccccc12)C(=O)NCC(=O)N[C@@H](C)C(=O)N[C@H]1CSCC(=O)Nc2ccc(cc2)N=Nc2ccc(c(S(=O)(=O)O)c2)-c2ccc(cc2S(=O)(=O)O)N=Nc2ccc(cc2)NC(=O)CSC[C@@H](C(=O)N[C@@H](CCCNC(=N)N)C(=O)N[C@@H](CCC(=O)O)C(=O)N[C@@H](C)C(=O)N[C@@H](C)C(=O)N[C@@H](C)C(=O)N[C@@H](CCCNC(=N)N)C(=O)N[C@@H](CCC(=O)O)C(=O)N[C@@H](C)C(=O)N[C@@H](CCC(N)=O)C(N)=O)NC(=O)[C@H](C)NC(=O)[C@H](C)NC(=O)[C@H](CCC(=O)O)NC(=O)[C@H](CCCNC(=N)N)NC(=O)[C@H](C)NC(=O)[C@H](C)NC(=O)[C@H](C)NC(=O)[C@H](CCC(=O)O)NC(=O)[C@H](CCCNC(=N)N)NC(=O)[C@H](C)NC(=O)[C@H](C)NC(=O)[C@H](C)NC(=O)[C@H](CCC(=O)O)NC1=O	cis-to-trans reversion, UV-Vis absorbance	10 mM phosphate buffer	pH 7.0, 20 °C, added: 365 nm irradiation		thermal relaxation half-life	10.6 ± 1.1 min
CC(C)C[C@H](NC(=O)[C@H](CC(N)=O)NC(=O)[C@@H](NC(=O)[C@H](Cc1ccccc1)NC(=O)[C@H](CC(C)C)NC(=O)[C@@H]1CCCN1C(=O)[C@H](C)NC(=O)[C@@H](N)Cc1ccccc1)[C@@H](C)O)C(=O)O	intracellular cytokine staining	C57BL/6 mouse, HSV-1 infected, spleen	0.8 µg/mL, 8 dpi, 6 h stimulation, pulsed fibroblasts		IFN-γ+ CD8+ T cells	1.04%
C[C@H](NC(=O)[C@H](CCC(N)=O)NC(=O)[C@H](C)NC(=O)[C@H](CCCCN)NC(=O)[C@H](CCC(N)=O)NC(=O)[C@H](C)NC(=O)[C@H](CCCCN)NC(=O)[C@H](CCC(N)=O)NC(=O)[C@H](C)NC(=O)[C@H](CCC(N)=O)NC(=O)[C@H](CCCCN)NC(=O)[C@H](C)NC(=O)[C@H](CCC(N)=O)NC(=O)[C@H](CCCCN)NC(=O)[C@H](C)NC(=O)[C@H](CCC(N)=O)NC(=O)[C@H](C)NC(=O)[C@H](CCCCN)NC(=O)[C@H](CCC(N)=O)NC(=O)[C@H](C)NC(=O)[C@H](CCCCN)NC(=O)[C@H](CO)NC(=O)[C@H](Cc1ccc(O)cc1)NC(=O)CNC(=O)CNC(=O)CN)C(=O)N[C@@H](CCCCN)C(=O)N[C@@H](CCC(N)=O)C(=O)N[C@@H](C)C(=O)N[C@@H](CCCCN)C(=O)N[C@@H](CCC(N)=O)C(=O)O		human ALκ4 amyloid extract	1 h, room temperature	relative to: 1 M NaCl over PBS	binding ratio	0.004
CC[C@H](C)[C@H](NC(=O)[C@@H](NC(=O)[C@H](CC(=O)O)NC(C)=O)[C@@H](C)O)C(=O)N[C@@H](CCCNC(=N)N)C(=O)N[C@@H](CC(C)C)C(=O)N[C@@H](CC(C)C)C(=O)N[C@@H](Cc1ccccc1)C(=O)N[C@@H](CCC(N)=O)C(=O)N[C@@H](CC(C)C)C(=O)N[C@@H](CCSC)C(=O)N[C@@H](CCCNC(=N)N)C(=O)N1CCC[C@H]1C(=O)N1CCC[C@H]1C(=O)N[C@@H](CC(N)=O)C(=O)N[C@@H](CCSC)C(=O)N[C@H](C(=O)N1CCC[C@H]1C(=O)N[C@@H](C)C(=O)N[C@H](C(=O)N[C@@H](CC(N)=O)C(=O)N[C@@H](C)C(N)=O)C(C)C)[C@@H](C)O	item: HA-41 tetramer	antigen-experienced tetramer+ CD4 T cells, healthy adults, HLA-DRB1*0101	dose not given		α4β7+ CCR9+ cells	0%
COc1ccc(CCN2CCC[C@H](CN3CCc4cc(OC)c(OC)cc4CC3=O)C2)cc1OC	VTA dopamine neurons	CSDS-susceptible male mice	intraperitoneal, 20 mg/kg	relative to: baseline	burst firing	decreased
C=C(NC(=O)C(=C)NC(=O)c1csc(C2=NC3c4csc(n4)C4NC(=O)c5csc(n5)C(C(C)(O)C(C)O)NC(=O)C5CSC(=N5)C(=CC)NC(=O)C(C(C)O)NC(=O)c5csc(n5)C3(CC2)NC(=O)C(C)NC(=O)C(=C)NC(=O)CNC(=O)C(C(C)CC)NC2C=Cc3c(C(C)O)cc(nc3C2O)C(=O)OC4C)n1)C(N)=O (stereo not shown)	protein synthesis, coupled transcription-translation, item: luciferase	Escherichia coli S30 extract	1 h, 37 °C		IC50	460 ± 50 nM
Cc1cc(O)c(I)c(C)c1C[C@H](N)C(=O)N[C@H](C)C(=O)N[C@@H](Cc1ccccc1)C(=O)N[C@@H](Cc1ccccc1)C(N)=O	analgesia	CD-1 mouse, placebo pellet	intracerebroventricular, 72 h		ED50	0.11 ± 0.06 µg
COc1ccc2c(c1)C(C)(C)C(/C=C/C1=C(Oc3ccc(C(=O)NCCCCOc4cc(CN(Cc5ccccn5)Cc5ccccn5)cc(CN(Cc5ccccn5)Cc5ccccn5)c4)cc3)C(=C/C=C3/N(CCCCS(=O)(=O)[O-])c4ccc(OC)cc4C3(C)C)CCC1)=[N+]2CCCCS(=O)(=O)[O-].O=[N+]([O-])O.O=[N+]([O-])[O-].O=[N+]([O-])[O-].O=[N+]([O-])[O-].[Zn+2].[Zn+2]	photoacoustic imaging	BALB/c mouse S. aureus myositis, infected muscle	intravenous, dose not given, 12 h	relative to: post- over pre-injection	signal-to-background ratio	2.17 ± 0.05
CC[C@H](C)[C@@H]1NC(=O)[C@@H](NC(=O)CNC(=O)c2ccc(F)cc2)CSSC[C@@H]2NC(=O)[C@H](C)NC(=O)CNC(=O)[C@@H]3CCCN3C(=O)[C@@H]3CSSC[C@@H](C(=O)NCC(=O)O)NC(=O)[C@H](Cc4ccc(O)cc4)NC(=O)CNC(=O)[C@H](CC(N)=O)NC(=O)CNC(=O)[C@H](CCCNC(=N)N)NC(=O)[C@H](CSSC[C@H](NC(=O)[C@H](CCCNC(=N)N)NC(=O)[C@H](Cc4ccccc4)NC(=O)[C@H](CC(C)C)NC(=O)[C@H](CC(C)C)NC(=O)[C@H]([C@@H](C)O)NC(=O)CNC(=O)[C@H](CC(C)C)NC(=O)[C@H](CC(=O)O)NC(=O)[C@H]([C@@H](C)O)NC(=O)[C@H](CCCNC(=N)N)NC(=O)[C@H](CCSC)NC(=O)[C@H](CC(N)=O)NC(=O)[C@H](CC(C)C)NC1=O)C(=O)N[C@@H](CCCNC(=N)N)C(=O)N[C@@H](CCCNC(=N)N)C(=O)N[C@@H](CC(=O)O)C(=O)N[C@@H](CO)C(=O)N[C@@H](CC(=O)O)C(=O)N3)NC(=O)[C@H]([C@@H](C)CC)NC2=O [fluorine-18 labelled]	PET	mouse, 293 xenograft (integrin αvβ6-negative)	0.5 h		tumour uptake	1.4 ± 0.6 %ID/g
CC(C)C[C@H](NC=O)C(=O)N[C@@H](C)C(=O)N[C@@H](C)C(=O)N[C@@H](CC(=O)O)C(=O)N[C@@H](CC(C)C)C(=O)N[C@@H](CC(C)C)C(=O)N[C@@H](C)C(=O)N[C@@H](C)C(=O)N[C@@H](CC(C)C)C(=O)NCC(=O)N[C@@H](CC(=O)O)C(=O)N[C@@H](CC(C)C)C(=O)N[C@@H](C)C(=O)N[C@@H](CCCCN)C(=O)N[C@@H](Cc1c[nH]c2ccccc12)C(=O)N[C@@H](CC(C)C)C(=O)N[C@@H](CC(C)C)C(=O)N[C@@H](CC(=O)O)C(=O)N[C@@H](C)C(=O)N[C@@H](CC(C)C)C(=O)N[C@@H](C)C(=O)N[C@@H](CCCCN)C(=O)N[C@@H](C)C(=O)N[C@@H](C)C(=O)N[C@@H](CCCCN)C(=O)N[C@@H](CCCCN)C(=O)O (racemic)		POPC vesicles			static quenching constant	80 M⁻¹
C[C@H](NC(=O)[C@H](CCC(N)=O)NC(=O)[C@H](CCCCN)NC(=O)[C@H](C)NC(=O)[C@@H]1CCCN1C(=O)[C@H](C)NC(=O)[C@H](CCCCN)NC(=O)[C@H](CCC(N)=O)NC(=O)[C@H](C)NC(=O)[C@H](CCCCN)NC(=O)[C@H](CCC(N)=O)NC(=O)[C@@H]1CCCN1C(=O)[C@H](CCC(N)=O)NC(=O)[C@H](CCCCN)NC(=O)[C@H](C)NC(=O)[C@H](CCC(N)=O)NC(=O)[C@H](CCCCN)NC(=O)[C@H](C)NC(=O)[C@@H]1CCCN1C(=O)[C@H](C)NC(=O)[C@H](CCCCN)NC(=O)[C@H](CCC(N)=O)NC(=O)[C@H](C)NC(=O)[C@H](CCCCN)NC(=O)[C@H](CO)NC(=O)[C@H](Cc1ccc(O)cc1)NC(=O)CNC(=O)CNC(=O)CN)C(=O)N[C@@H](CCCCN)C(=O)N[C@@H](CCC(N)=O)C(=O)O		human IAPP fibrils	1 h, room temperature	relative to: 1 M NaCl over PBS	binding ratio	0.07

Repeated from above:
SMILES	test	system	conditions	scale	measurement	result
CC[C@H](C)[C@H](NC(=O)[C@@H](NC(=O)[C@H](CC(=O)O)NC(C)=O)[C@@H](C)O)C(=O)N[C@@H](CCCNC(=N)N)C(=O)N[C@@H](CC(C)C)C(=O)N[C@@H](CC(C)C)C(=O)N[C@@H](Cc1ccccc1)C(=O)N[C@@H](CCC(N)=O)C(=O)N[C@@H](CC(C)C)C(=O)N[C@@H](CCSC)C(=O)N[C@@H](CCCNC(=N)N)C(=O)N1CCC[C@H]1C(=O)N1CCC[C@H]1C(=O)N[C@@H](CC(N)=O)C(=O)N[C@@H](CCSC)C(=O)N[C@H](C(=O)N1CCC[C@H]1C(=O)N[C@@H](C)C(=O)N[C@H](C(=O)N[C@@H](CC(N)=O)C(=O)N[C@@H](C)C(N)=O)C(C)C)[C@@H](C)O	item: HA-41 tetramer	antigen-experienced tetramer+ CD4 T cells, healthy adults, HLA-DRB1*0101	dose not given		α4β7+ CCR9+ cells	0%
COc1ccc(CCN2CCC[C@H](CN3CCc4cc(OC)c(OC)cc4CC3=O)C2)cc1OC	VTA dopamine neurons	CSDS-susceptible male mice	intraperitoneal, 20 mg/kg	relative to: baseline	burst firing	decreased
